# Published values of several laboratories.
# Compare with care: the assays were run in different laboratories. Values joined by “and” are separate records of one study, mostly repeats; a detail may differ.
# Target: Serine/threonine-protein kinase 17A (STK17A, Homo sapiens, UniProt Q9UEE5)
SMILES,test,test system,conditions,how to read,measurement,result
O=C=[N][Ru-4]123([n]4c5ccc(O)cc5c5c6c(c7cc(F)c[n+]1c7c54)C(=O)NC6=O)[S+]1CC[S+]2CC[S+]3CC1 (stereo not drawn),enzyme activity,,"100 nM, human enzyme, added: 10 µM ATP",baseline: untreated,remaining activity,94%
COc1c(OCCCN2CCOCC2)ccc2c1N=C(NC(=O)c1cnc(N)nc1)N1CCN=C21,"kinase activity, inhibitor",,1 µM,baseline: untreated control,remaining activity,92%
NC(=O)[C@@H](O)C[C@H]1CCc2sc3ncnc(O[C@H]4CC[C@H](N5CCOCC5)CC4)c3c21,"enzyme activity, inhibitor",,10 µM,,inhibition,2%
Cc1ccc(-c2c(/C=C(\C#N)C(=O)NC(C)C)n(CCCO)c3ncnc(N)c23)cc1,"cell-free assay, competition with immobilised ligand",,1 µM,,remaining binding,92%
COCC12C(=O)NC3C4(C(OC)CC1O)C1CC5(O)C(OC)C(O)C(OC(C)=O)(C1C5OC(=O)c1ccccc1)C3(O)C(OC)C24 (stereo not drawn),"kinase activity, inhibitor, ProQinase kinase profiling",,25 µM,baseline: control,remaining activity,73% and 72%
Nc1ncc(-c2cc(-c3cnn(CC(F)(F)F)c3)ncc2F)nc1C(=O)NC1CNCC(F)C1 (stereo not drawn),enzyme activity,,1 µM,baseline: DMSO control,remaining activity,52%
Cc1cnc2nc1Nc1cccc(c1)COC/C=C/COCc1cc(ccc1OCCN1CCOCC1)N2,"binding, competition with immobilised ligand",,0.1 µM,,remaining binding,100%
C=CC(=O)N1Cc2nc(-c3cc(-c4cc(Cl)cnc4Cl)c(F)cc3F)n(-c3ccncn3)c2C1,cell-free assay,,1 µM,,inhibition,1.3%
CCN1CCN(Cc2ccc(C(=O)Nc3ccc(C)c(NCc4cnc5[nH]ccc5c4OC)c3)cc2C(F)(F)F)CC1,"binding, competition with immobilised ligand",,1 µM,,remaining binding,100%
CN1CC[C@@H](COc2cnc(C#N)cc2-c2ccn3nc(NC(=O)C4CC4)cc3c2)C1,"enzyme activity, inhibitor",,1 µM,,inhibition,16%
Nc1ncc2c(n1)-c1c([nH]c3ccc(C4=CCOCC4)cc13)CCC2,"binding, competition with immobilised ligand",,1 µM,,remaining binding,72%
Cc1ccc(C(=O)Nc2ccc(CN3CCN(C)CC3)c(C(F)(F)F)c2)cc1C#Cc1cnc2cccnn12,"target engagement, NanoBRET",human cells,,,Hill slope,0.823
COc1cc(Nc2nc(C)cc(-c3cnn4nc(OC)ccc34)n2)cc(C(F)(F)F)c1,inhibitor,,"1 µM, DRAK1",baseline: control,remaining activity,66%
CCn1cc(C(=O)O)c(=O)c2c(N)c(F)c(NC3CCCCC3)cc21,kinase activity,,"0.1 µM, added: ATP at Km",,inhibition,15.7%
COc1c(Cl)cccc1Nc1c(-c2ccncc2C#C[C@@]2(C)CCCN2C(=O)/C=C/CN(C)C)[nH]c2c1C(=O)NCC2,"cell-free assay, competition with immobilised ligand",,3 µM,,remaining binding,85%

# Repeated from above:
SMILES,test,test system,conditions,how to read,measurement,result
COc1c(OCCCN2CCOCC2)ccc2c1N=C(NC(=O)c1cnc(N)nc1)N1CCN=C21,"kinase activity, inhibitor",,1 µM,baseline: untreated control,remaining activity,92%
